# Assay results from different studies.
# Protocols differ between the studies behind these lines.
# B1: RB1CC1 1450-1594 (Homo sapiens, UniProt Q8TDY2); chain HMLSEEKQRIMLLERTLQLKEEENKRLNQRLMSQSMSSVSSRHSEKIAIRDFQVGDLVLIILDERHDNYVLFTVSPTLYFLHSESLPALDLKPGEGASGASRRPWVLGKVMEKEYCQAKKAQNRFKVPLGTKFYRVKAVSWNKKV
# B2: Notch1 221-526 (Mus musculus, UniProt Q01705); sequence looked up; chain PCSPSPCQNGGTCRPTGDTTHECACLPGFAGQNCEENVDDCPGNNCKNGGACVDGVNTYNCRCPPEWTGQYCTEDVDECQLMPNACQNGGTCHNTHGGYNCVCVNGWTGEDCSENIDDCASAACFQGATCHDRVASFYCECPHGRTGLLCHLNDACISNPCNEGSNCDTNPVNGKAICTCPSGYTGPACSQDVDECALGANPCEHAGKCLNTLGSFECQCLQGYTGPRCEIDVNECISNPCQNDATCLDQIGEFQCICMPGYEGVYCEINTDECASSPCLHNGHCMDKINEFQCQCPKGFNGHLCQ
# B3: Sgip1 69-156 (Mus musculus, UniProt Q8VD37); sequence looked up; chain AEIDWERYNSPELDEEGYSIRPEEPGSTKGKHFYSSSESEEEEESHKKFNIKIKPLQSKDVLKNAATVDELKASIGNIALSPSPVRKS
# B4: INF2 941-1249 (Homo sapiens, UniProt Q27J81-1); FITC label; chain KQQLAEEEARRPRGEDGKPVRKGPGKQEEVCVIDALLADIRKGFQLRKTARGRGDTDGGSKAASMDPPRATEPVATSNPAGDPVGSTRCPASEPGLDATTASESRGWDLVDAVTPGPQPTLEQLEEGGPRPLERRSSWYVDASDVLTTEDPQCPQPLEGAWPVTLGDAQALKPLKFSSNQPPAAGSSRQDAKDPTSLLGVLQAEADSTSEGLEDAVHSRGARPPAAGPGGDEDEDEEDTAPESALDTSLDKSFSEDAVTDSSGSGTLPRARGRASKGTGKRRKKRPSRSQEEVPPDSDDNKTKKLCVIQ
# B5: COX5A (Saccharomyces cerevisiae, UniProt P00424); sequence looked up; chain AQTHALSNAAVMDLQSRWENMPSTEQQDIVSKLSERQKLPWAQLTEPEKQAVWYISYGEWGPRRPVLNKGDSSFIAKGVAAGLLFSVGLFAVVRMAGGQDAKTMNKEWQLKSDEYLKSKNANPWGGYSQVQSK
# B6: bcsC 24-709 (Escherichia coli, UniProt P37650); chain APTAQQQLLEQVRLGEATHREDLVQQSLYRLELIDPNNPDVVAARFRSLLRQGDIDGAQKQLDRLSQLAPSSNAYKSSRTTMLLSTPDGRQALQQARLQATTGHAEEAVASYNKLFNGAPPEGDIAVEYWSTVAKIPARRGEAINQLKRINADAPGNTGLQNNLALLLFSSDRRDEGFAVLEQMAKSNAGREGASKIWYGQIKDMPVSDASVSALKKYLSIFSDGDSVAAAQSQLAEQQKQLADPAFRARAQGLAAVDSGMAGKAIPELQQAVRANPKDSEALGALGQAYSQKGDRANAVANLEKALALDPHSSNNDKWNSLLKVNRYWLAIQQGDAALKANNPDRAERLFQQARNVDNTDSYAVLGLGDVAMARKDYPAAERYYQQTLRMDSGNTNAVRGLANIYRQQSPEKAEAFIASLSASQRRSIDDIERSLQNDRLAQQAEALENQGKWAQAAALQRQRLALDPGSVWITYRLSQDLWQAGQRSQADTLMRNLAQQKSNDPEQVYAYGLYLSGHDQDRAALAHINSLPRAQWNSNIQELVNRLQSDQVLETANRLRESGKEAEAEAMLRQQPPSTRIDLTLADWAQQRRDYTAARAAYQNVLTREPANADAILGLTEVDIAAGDKAAARSQLAKLPATDNASLNTQRRVALAQAQLGDTAAAQRTFNKLIPQAKSQPPSME
# B7: SIR4 1150-1358 (Saccharomyces cerevisiae, UniProt P11978); sequence looked up; chain KTLPEKKQFDSIFNSNKAKIIPGNGKHASENISLSFSRPASYGYFSVGKRVPIVEDRRVKQLDDITDSNTTEILTSVDVLGTHSQTGTQQSNMYTSTQKTELEIDNKDSVTECSKDMKEDGLSFVDIVLSKAASALDEKEKQLAVANEIIRSLSDEVMRNEIRITSLQGDLTFTKKCLENARSQISEKDAKINKLMEKDFQVNKEIKPY
# B8: PIN1 42-163 (Homo sapiens, UniProt Q13526); chain SSGGKNGQGEPARVRCSHLLVKHSQSRRPSSWRQEKITRTKEEALELINGYIQKIKSGEEDFESLASQFSDCSSAKARGDLGAFSRGQMQKPFEDASFALRTGEMSGPVFTDSGIHIILRTE
# B9: human DDX42; sequence looked up; chain MNWNKGGPGTKRGFGFGGFAISAGKKEEPKLPQQSHSAFGATSSSSGFGKSAPPQLPSFYKIGSKRANFDEENAYFEDEEEDSSNVDLPYIPAENSPTRQQFHSKPVDSDSDDDPLEAFMAEVEDQAARDMKRLEEKDKERKNVKGIRDDIEEEDDQEAYFRYMAENPTAGVVQEEEEDNLEYDSDGNPIAPTKKIIDPLPPIDHSEIDYPPFEKNFYNEHEEITNLTPQQLIDLRHKLNLRVSGAAPPRPGSSFAHFGFDEQLMHQIRKSEYTQPTPIQCQGVPVALSGRDMIGIAKTGSGKTAAFIWPMLIHIMDQKELEPGDGPIAVIVCPTRELCQQIHAECKRFGKAYNLRSVAVYGGGSMWEQAKALQEGAEIVVCTPGRLIDHVKKKATNLQRVSYLVFDEADRMFDMGFEYQVRSIASHVRPDRQTLLFSATFRKKIEKLARDILIDPIRVVQGDIGEANEDVTQIVEILHSGPSKWNWLTRRLVEFTSSGSVLLFVTKKANAEELANNLKQEGHNLGLLHGDMDQSERNKVISDFKKKDIPVLVATDVAARGLDIPSIKTVINYDVARDIDTHTHRIGRTGRAGEKGVAYTLLTPKDSNFAGDLVRNLEGANQHVSKELLDLAMQNAWFRKSRFKGGKGKKLNIGGGGLGYRERPGLGSENMDRGNNNVMSNYEAYKPSTGAMGDRLTAMKAAFQSQYKSHFVAASLSNQKAGSSAAGASGWTSAGSLNSVPTNSAQQGHNSPDSPVTSAAKGIPGFGNTGNISGAPVTYPSAGAQGVNNTASGNNSREGTGGSNGKRERYTENRGSSRHSHGETGNRHSDSPRHGDGGRHGDGYRHPESSSRHTDGHRHGENRHGGSAGRHGENRGANDGRNGESRKEAFNRESKMEPKMEPKVDSSKMDKVDSKTDKTADGFAVPEPPKRKKSRWDS
# B10: CRYBA1 (Homo sapiens, UniProt P05813-1); sequence looked up; chain METQAEQQELETLPTTKMAQTNPTPGSLGPWKITIYDQENFQGKRMEFTSSCPNVSERSFDNVRSLKVESGAWIGYEHTSFCGQQFILERGEYPRWDAWSGSNAYHIERLMSFRPICSANHKESKMTIFEKENFIGRQWEISDDYPSLQAMGWFNNEVGSMKIQSGAWVCYQYPGYRGYQYILECDHHGGDYKHWREWGSHAQTSQIQSIRRIQQ
# B11: AGRN 1329-2068 N1993R (Homo sapiens, UniProt O00468); sequence looked up; chain PPKPCDSQPCFHGGTCQDWALGGGFTCSCPAGRGGAVCEKVLGAPVPAFEGRSFLAFPTLRAYHTLRLALEFRALEPQGLLLYNGNARGKDFLALALLDGRVQLRFDTGSGPAVLTSAVPVEPGQWHRLELSRHWRRGTLSVDGETPVLGESPSGTDGLNLDTDLFVGGVPEDQAAVALERTFVGAGLRGCIRLLDVNNQRLELGIGPGAATRGSGVGECGDHPCLPNPCHGGAPCQNLEAGRFHCQCPPGRVGPTCADEKSPCQPNPCHGAAPCRVLPEGGAQCECPLGREGTFCQTASGQDGSGPFLADFNGFSHLELRGLHTFARDLGEKMALEVVFLARGPSGLLLYNGQKTDGKGDFVSLALRDRRLEFRYDLGKGAAVIRSREPVTLGAWTRVSLERNGRKGALRVGDGPRVLGESPKSRKVPHTVLNLKEPLYVGGAPDFSKLARAAAVSSGFDGAIQLVSLGGRQLLTPEHVLRQVDVTSFAGHPCTRASGHPCLNGASCVPREAAYVCLCPGGFSGPHCEKGLVEKSAGDVDTLAFDGRTFVEYLNAVTESELANEIPVEKALQSNHFELSLRTEATQGLVLWSGKATERADYVALAIVDGHLQLSYNLGSQPVVLRSTVPVNTNRWLRVVAHREQREGSLQVGREAPVTGSSPLGATQLDTDGALWLGGLPELPVGPALPKAYGTGFVGCLRDVVVGRHPLHLLEDAVTKPELRPCPTP
# UniProt P57768, sequence (whole entry, looked up): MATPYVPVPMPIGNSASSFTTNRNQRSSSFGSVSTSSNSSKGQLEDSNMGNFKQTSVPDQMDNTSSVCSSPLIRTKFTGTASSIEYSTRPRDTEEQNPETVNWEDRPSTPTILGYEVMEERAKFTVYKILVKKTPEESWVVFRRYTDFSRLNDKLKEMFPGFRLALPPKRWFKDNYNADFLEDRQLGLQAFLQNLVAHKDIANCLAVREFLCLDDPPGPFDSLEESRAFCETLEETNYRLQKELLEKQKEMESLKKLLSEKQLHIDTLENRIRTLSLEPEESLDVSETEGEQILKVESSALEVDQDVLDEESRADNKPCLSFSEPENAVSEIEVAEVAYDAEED
# UniProt P06700, sequence (whole entry, looked up): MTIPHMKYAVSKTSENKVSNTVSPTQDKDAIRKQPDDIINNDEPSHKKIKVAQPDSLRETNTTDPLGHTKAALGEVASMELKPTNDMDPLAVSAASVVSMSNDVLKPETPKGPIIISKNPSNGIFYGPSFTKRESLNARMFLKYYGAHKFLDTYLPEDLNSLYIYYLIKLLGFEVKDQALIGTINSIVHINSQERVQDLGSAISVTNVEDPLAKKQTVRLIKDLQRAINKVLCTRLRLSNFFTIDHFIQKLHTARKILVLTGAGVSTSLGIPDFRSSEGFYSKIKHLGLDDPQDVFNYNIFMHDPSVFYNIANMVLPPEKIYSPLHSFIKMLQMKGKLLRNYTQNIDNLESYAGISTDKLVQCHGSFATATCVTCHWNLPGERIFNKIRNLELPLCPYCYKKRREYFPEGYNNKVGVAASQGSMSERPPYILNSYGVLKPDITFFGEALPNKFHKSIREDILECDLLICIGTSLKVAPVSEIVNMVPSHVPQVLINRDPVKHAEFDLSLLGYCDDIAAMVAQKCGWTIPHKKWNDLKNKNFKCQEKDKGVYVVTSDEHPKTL
# UniProt Q9NR61, sequence (whole entry, looked up): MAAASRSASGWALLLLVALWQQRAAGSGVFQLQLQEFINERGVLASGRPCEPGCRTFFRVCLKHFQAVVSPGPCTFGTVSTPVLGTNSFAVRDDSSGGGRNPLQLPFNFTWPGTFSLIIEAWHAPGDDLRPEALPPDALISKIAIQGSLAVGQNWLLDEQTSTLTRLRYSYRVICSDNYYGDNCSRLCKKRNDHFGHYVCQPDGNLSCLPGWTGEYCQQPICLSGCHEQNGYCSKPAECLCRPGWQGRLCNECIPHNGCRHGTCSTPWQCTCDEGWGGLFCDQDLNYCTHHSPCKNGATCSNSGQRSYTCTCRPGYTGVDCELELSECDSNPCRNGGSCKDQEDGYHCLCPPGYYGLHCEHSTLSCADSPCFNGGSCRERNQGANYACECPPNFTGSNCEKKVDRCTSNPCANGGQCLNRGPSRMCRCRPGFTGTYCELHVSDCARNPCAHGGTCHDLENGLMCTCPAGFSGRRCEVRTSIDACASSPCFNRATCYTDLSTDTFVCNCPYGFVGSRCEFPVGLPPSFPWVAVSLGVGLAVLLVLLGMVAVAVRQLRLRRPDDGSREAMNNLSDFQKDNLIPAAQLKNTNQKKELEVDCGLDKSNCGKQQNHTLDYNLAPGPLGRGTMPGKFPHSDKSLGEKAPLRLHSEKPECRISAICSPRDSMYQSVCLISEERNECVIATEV
# UniProt Q12142, sequence (whole entry, looked up): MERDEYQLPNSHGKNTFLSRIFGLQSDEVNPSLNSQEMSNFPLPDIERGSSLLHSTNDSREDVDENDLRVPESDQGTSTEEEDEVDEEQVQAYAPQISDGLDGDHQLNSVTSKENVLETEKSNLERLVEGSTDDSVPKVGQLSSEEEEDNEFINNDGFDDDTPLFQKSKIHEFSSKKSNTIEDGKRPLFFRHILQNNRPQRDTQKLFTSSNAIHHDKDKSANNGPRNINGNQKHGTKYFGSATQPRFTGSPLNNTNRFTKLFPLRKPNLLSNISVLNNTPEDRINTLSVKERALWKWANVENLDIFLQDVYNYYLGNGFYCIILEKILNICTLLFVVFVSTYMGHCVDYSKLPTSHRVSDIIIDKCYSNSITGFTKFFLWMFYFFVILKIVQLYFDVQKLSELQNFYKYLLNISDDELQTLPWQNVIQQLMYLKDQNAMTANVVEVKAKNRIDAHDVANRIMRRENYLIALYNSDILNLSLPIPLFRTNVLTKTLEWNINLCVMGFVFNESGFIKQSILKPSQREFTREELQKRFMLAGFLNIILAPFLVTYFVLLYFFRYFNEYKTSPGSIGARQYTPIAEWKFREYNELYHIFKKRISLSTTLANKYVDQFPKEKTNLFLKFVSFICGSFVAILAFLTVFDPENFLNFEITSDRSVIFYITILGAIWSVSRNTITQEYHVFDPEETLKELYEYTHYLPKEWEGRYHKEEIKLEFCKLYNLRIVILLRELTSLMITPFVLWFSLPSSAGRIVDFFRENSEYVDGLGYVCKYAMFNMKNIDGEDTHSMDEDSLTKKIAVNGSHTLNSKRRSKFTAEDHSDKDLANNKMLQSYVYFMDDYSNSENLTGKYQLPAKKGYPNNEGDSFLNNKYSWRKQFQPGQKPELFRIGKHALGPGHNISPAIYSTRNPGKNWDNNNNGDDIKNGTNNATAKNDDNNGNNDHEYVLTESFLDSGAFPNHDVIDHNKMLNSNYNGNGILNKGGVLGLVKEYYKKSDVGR
# UniProt P07256, sequence (whole entry, looked up): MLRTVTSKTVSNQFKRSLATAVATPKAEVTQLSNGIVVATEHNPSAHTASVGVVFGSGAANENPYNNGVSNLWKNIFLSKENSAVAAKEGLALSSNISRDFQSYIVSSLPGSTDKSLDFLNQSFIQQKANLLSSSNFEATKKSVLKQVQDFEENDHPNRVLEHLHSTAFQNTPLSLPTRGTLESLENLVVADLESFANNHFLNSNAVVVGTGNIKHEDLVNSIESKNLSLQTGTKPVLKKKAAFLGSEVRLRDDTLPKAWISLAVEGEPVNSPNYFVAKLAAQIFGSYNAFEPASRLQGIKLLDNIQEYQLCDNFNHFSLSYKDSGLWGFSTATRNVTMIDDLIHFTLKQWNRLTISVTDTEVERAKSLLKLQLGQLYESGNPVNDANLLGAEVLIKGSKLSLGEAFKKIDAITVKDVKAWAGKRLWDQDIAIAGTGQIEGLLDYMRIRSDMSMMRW
# UniProt Q9Y657, sequence (whole entry, looked up): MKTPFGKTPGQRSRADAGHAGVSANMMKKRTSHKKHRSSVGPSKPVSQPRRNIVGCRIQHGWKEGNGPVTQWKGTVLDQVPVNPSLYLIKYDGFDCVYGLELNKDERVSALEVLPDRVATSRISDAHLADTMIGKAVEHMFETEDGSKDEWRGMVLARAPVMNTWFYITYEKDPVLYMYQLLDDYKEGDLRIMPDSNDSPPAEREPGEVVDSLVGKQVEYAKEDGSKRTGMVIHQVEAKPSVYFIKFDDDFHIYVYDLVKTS
# UniProt Q06671, sequence (whole entry, looked up): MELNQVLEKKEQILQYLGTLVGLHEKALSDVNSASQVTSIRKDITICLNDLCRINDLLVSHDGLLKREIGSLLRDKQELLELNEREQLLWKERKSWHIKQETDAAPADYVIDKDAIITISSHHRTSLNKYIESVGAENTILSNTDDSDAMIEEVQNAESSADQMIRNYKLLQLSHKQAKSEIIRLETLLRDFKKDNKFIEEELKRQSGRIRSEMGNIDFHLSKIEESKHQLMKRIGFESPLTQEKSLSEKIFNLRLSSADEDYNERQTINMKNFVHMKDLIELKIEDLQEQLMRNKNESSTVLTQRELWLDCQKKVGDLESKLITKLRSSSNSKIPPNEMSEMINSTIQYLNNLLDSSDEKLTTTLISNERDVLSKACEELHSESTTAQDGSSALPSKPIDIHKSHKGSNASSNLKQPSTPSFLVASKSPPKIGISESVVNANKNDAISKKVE
# UniProt P37652, sequence (whole entry, looked up): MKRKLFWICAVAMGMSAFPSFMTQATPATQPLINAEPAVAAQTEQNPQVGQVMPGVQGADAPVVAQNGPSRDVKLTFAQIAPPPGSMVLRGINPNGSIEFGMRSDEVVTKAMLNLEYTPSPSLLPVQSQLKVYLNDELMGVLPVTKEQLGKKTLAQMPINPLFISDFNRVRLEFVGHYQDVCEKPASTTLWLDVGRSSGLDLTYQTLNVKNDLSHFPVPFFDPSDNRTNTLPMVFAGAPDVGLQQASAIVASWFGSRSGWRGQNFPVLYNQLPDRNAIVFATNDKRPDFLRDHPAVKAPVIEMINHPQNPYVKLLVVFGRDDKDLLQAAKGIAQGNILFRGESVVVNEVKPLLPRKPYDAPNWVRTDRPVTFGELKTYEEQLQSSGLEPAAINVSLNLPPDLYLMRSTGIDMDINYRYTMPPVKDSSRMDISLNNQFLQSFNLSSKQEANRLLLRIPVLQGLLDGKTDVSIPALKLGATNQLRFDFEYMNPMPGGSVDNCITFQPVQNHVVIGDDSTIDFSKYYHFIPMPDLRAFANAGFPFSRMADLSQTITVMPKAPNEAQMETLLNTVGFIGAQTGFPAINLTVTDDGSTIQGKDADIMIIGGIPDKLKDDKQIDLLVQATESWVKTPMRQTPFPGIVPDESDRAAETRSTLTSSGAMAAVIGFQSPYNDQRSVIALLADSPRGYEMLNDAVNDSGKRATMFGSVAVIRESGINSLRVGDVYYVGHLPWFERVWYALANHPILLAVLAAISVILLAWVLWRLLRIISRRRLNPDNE
# UniProt Q9BUA3, sequence (whole entry, looked up): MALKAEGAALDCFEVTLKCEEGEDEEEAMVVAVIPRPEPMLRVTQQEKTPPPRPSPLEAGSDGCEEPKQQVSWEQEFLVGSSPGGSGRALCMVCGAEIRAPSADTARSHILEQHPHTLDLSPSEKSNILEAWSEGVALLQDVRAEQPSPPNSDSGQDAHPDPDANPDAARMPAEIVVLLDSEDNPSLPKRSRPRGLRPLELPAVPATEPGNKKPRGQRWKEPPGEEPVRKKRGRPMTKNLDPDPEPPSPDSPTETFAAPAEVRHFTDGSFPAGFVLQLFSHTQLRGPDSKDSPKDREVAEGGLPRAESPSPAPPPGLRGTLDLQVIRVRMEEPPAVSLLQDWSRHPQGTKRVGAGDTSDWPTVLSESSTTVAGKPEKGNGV
Substance,target or system,assay,test system,conditions,how to read,measurement,result
B1 (RB1CC1 1450-1594),"CALCOCO2 128-316 (Homo sapiens, UniProt Q13137)",SEC,,,,binding,binds
"SNX16 (Homo sapiens, UniProt P57768)","SNX4 (Homo sapiens, UniProt O95219)",pull-down,,,,binding,binds
B2 (Notch1 221-526),"DLL4 27-400 (Homo sapiens, UniProt Q9NR61)",SPR,,,,binding,binds
colistin,Acinetobacter baumannii,broth microdilution,clinical isolate RKI-No_4/15,,,MIC,≤ 0.5 µg/mL
proteasome subunit alpha-1 (human),CYB5R4 knockout human cells,"PP6 interaction, 3xFLAG-PP6C IP-MS",,concentration not given,reference: CYB5R4 KO over parental,log2 fold change,0.27
"GTSSFKESALRKQSLYLKFDPLLRDSPGR (TACC3 545-573 (Homo sapiens, UniProt Q9Y6A5); pS558; sequence looked up)","CLTC 358-574 (Homo sapiens, UniProt Q00610)",NMR titration,,,,binding,binds
"ARTKQTARCSTGGKAPRKQLATKAARKSAPAT (H3C1 2-33 K9C (UniProt P68431); alkylated Cys9, dimethyl-lysine analog; sequence looked up)","ZMET2 130-912, 5-fluorocytosine DNA crosslink (Zea mays, UniProt Q9AXT8)",crystal structure,peptide,,,binding,binds
B3 (Sgip1 69-156),"Ap2b1 1-592 (Mus musculus, UniProt Q9DBG3)",cryo-EM,,,,binding,binds
B4 (INF2 941-1249),"INF2 1-420 20-24 to GSGSG (Homo sapiens, UniProt Q27J81)",FP,,,,binding,binds
"ILPSDIMDFVLKNTP (KMT2A N1 helix 2844-2858 (Homo sapiens, UniProt Q03164); FITC label; sequence looked up)","Crebbp KIX domain 586-672 (Mus musculus, UniProt P45481)",fluorescence polarisation,peptide,,,binding,binds
B5 (COX5A),"COR1 mature (Saccharomyces cerevisiae, UniProt P07256)",cryo-EM,,,,binding,binds
B6 (bcsC 24-709),"bcsB 26-779 (Escherichia coli, UniProt P37652)",cryo-EM,,,,binding,binds
B7 (SIR4 1150-1358),"SIR2, His6, RED-tris-NTA label (Saccharomyces cerevisiae, UniProt P06700)",MST,,,,binding,binds
B8 (PIN1 42-163),"PPARG AF-1 1-136, pT75, pS112 (Homo sapiens, UniProt P37231-1)",NMR,,,,binding,binds
B9 (human DDX42),PP6C (human),"co-immunoprecipitation, IP-MS",CYB5R4 knockout cells,concentration not given,reference: CYB5R4 knockout over parental,log2 fold change,0.7
B10 (CRYBA1),"CRYBB1 (Homo sapiens, UniProt P53674)",native MS,,,,binding,binds
B11 (AGRN 1329-2068 N1993R),"LRP4 21-1350 (Homo sapiens, UniProt O75096)",mass photometry,,"mutant, added: CaCl2",,binding,binds
"HGKNTFLSRIFGL (ATG9 12-24 (Saccharomyces cerevisiae, UniProt Q12142); sequence looked up)","ATG23 full-length, dimer (Saccharomyces cerevisiae, UniProt Q06671)",pull-down,,"15 minutes, 4 °C",,binding,binds
"VRKKRGRPMTKN (SPINDOC 228-239 (Homo sapiens, UniProt Q9BUA3))","SPIN1 50-262 (Homo sapiens, UniProt Q9Y657)",NMR titration,peptide,,,binding,binds

# Excerpt of the above:
Substance,target or system,assay,test system,conditions,how to read,measurement,result
"SNX16 (Homo sapiens, UniProt P57768)","SNX4 (Homo sapiens, UniProt O95219)",pull-down,,,,binding,binds
B2 (Notch1 221-526),"DLL4 27-400 (Homo sapiens, UniProt Q9NR61)",SPR,,,,binding,binds
